# Experimental data of several laboratories.
# Each numbered part is a random draw from the data of one study; scales do not carry over between parts. Several values in a cell are separate wells, animals, samples, runs or records.
# Chain of UniProt Q9HBY8 (whole entry, looked up): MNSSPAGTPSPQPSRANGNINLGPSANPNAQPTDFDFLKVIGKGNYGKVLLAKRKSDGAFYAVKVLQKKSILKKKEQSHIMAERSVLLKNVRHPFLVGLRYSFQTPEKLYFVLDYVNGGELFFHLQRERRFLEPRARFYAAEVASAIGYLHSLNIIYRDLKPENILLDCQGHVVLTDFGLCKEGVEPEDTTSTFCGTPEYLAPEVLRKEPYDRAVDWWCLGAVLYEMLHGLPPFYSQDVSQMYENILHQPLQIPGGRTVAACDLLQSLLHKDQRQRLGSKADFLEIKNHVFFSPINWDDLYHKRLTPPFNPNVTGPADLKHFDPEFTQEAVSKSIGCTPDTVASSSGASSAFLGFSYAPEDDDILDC
# Chain of UniProt P16591 (whole entry, looked up): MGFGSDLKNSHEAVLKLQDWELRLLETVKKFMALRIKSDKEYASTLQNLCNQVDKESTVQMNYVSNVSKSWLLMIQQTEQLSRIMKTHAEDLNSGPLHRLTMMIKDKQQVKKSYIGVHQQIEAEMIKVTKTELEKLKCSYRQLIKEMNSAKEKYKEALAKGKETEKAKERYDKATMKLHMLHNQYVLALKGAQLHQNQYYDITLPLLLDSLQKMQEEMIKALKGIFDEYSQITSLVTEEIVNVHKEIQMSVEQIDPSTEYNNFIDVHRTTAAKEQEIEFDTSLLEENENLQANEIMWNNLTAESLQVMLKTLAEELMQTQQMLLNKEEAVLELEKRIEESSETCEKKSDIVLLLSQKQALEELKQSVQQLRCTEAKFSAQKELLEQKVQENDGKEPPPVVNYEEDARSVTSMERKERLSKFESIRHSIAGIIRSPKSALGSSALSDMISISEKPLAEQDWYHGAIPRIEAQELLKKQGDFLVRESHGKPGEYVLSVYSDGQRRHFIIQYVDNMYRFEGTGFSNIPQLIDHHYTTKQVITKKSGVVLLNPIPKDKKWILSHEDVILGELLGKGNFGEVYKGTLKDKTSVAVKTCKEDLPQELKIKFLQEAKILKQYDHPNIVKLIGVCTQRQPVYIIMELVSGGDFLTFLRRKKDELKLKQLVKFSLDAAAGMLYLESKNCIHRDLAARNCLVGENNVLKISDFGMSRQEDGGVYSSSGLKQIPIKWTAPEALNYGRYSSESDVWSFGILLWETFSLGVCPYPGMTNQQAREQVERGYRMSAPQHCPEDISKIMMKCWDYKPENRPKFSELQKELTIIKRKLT
# Chain of UniProt Q9H422 (whole entry, looked up): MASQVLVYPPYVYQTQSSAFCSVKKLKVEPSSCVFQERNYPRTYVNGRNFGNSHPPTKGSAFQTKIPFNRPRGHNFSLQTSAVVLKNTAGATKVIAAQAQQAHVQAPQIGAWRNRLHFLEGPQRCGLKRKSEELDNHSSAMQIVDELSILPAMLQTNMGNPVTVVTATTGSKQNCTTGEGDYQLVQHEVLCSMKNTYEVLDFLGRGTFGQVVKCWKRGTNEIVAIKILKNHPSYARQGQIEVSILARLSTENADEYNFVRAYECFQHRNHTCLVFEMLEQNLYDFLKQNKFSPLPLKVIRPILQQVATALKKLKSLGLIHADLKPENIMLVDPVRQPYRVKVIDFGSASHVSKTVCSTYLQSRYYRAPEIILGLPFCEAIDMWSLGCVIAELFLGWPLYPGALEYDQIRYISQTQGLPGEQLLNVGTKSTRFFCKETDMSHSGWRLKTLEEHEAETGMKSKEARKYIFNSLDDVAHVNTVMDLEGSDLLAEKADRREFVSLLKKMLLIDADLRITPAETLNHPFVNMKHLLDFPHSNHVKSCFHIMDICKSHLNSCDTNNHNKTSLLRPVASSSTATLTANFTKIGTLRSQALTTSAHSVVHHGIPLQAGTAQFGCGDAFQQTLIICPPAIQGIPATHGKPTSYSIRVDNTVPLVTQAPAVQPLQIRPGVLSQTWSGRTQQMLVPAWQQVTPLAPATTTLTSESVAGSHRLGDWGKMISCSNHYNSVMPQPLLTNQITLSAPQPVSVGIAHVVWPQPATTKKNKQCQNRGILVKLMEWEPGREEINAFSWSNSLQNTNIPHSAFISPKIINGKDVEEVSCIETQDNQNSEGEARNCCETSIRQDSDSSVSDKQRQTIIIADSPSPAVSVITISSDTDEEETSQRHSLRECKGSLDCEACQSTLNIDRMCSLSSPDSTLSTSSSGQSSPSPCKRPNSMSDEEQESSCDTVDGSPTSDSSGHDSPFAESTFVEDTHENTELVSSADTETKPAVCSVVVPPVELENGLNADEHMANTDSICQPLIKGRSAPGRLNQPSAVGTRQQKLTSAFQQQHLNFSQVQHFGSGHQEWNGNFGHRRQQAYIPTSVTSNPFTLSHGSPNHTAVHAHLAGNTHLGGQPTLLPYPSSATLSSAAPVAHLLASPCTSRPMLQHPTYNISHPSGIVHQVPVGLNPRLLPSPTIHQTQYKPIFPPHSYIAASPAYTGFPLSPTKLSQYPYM
# Chain of UniProt Q9UPZ9 (whole entry, looked up): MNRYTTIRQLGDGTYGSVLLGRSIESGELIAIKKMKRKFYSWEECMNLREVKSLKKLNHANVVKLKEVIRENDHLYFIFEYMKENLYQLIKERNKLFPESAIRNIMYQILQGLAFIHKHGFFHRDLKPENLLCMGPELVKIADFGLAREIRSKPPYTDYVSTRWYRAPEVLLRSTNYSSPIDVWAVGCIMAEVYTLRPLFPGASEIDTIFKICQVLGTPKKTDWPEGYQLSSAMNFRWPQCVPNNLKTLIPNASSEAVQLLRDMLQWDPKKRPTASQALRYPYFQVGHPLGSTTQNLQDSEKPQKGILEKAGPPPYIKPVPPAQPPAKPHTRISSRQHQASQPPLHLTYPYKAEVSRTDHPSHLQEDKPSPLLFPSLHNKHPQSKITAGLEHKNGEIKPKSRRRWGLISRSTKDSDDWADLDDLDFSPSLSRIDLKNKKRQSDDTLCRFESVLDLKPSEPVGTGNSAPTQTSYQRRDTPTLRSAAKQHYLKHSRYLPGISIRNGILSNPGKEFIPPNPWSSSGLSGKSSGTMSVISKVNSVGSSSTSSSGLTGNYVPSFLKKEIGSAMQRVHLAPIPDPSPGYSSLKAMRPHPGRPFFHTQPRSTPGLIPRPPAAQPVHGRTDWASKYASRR
# Chain of UniProt P52564 (whole entry, looked up): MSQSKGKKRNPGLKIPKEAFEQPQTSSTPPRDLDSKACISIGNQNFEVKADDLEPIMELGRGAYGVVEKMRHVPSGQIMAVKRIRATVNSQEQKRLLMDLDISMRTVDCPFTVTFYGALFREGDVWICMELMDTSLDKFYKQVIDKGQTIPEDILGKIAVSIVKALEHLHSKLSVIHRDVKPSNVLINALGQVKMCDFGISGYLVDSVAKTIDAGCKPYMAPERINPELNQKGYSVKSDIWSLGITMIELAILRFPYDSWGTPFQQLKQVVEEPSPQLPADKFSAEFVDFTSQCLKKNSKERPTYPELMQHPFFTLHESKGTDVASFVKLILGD
# Chain of UniProt Q86Y07 (whole entry, looked up): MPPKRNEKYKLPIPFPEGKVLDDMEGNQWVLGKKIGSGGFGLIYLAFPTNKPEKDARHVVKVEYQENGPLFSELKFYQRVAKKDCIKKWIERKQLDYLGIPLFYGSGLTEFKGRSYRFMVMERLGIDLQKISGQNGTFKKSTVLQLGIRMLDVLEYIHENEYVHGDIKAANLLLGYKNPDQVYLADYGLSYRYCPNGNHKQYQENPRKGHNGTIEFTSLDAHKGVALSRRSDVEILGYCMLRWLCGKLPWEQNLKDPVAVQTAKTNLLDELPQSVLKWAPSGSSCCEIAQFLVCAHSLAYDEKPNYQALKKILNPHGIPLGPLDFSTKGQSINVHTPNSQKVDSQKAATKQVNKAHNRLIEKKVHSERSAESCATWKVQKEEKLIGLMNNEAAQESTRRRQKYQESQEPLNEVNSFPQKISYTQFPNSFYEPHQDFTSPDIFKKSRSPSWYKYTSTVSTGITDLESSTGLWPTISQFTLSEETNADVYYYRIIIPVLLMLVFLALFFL

# Series 1 — action: agonist
# Target: Beta-1 adrenergic receptor (ADRB1, Homo sapiens, UniProt P08588)
# Chain of UniProt P08588 (whole entry, looked up): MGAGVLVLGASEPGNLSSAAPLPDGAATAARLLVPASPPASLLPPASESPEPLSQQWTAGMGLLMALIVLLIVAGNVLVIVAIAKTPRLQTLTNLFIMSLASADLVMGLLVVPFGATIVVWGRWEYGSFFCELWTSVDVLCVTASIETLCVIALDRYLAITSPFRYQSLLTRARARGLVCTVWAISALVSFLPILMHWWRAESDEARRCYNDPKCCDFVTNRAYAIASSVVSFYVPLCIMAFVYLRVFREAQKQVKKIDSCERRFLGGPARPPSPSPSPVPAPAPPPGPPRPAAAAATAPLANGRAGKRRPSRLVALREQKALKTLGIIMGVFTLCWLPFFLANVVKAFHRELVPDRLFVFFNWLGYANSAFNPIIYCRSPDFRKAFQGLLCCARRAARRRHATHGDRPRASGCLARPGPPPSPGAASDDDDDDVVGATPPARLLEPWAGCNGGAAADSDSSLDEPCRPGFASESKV
Structure (SMILES),EC50 [µM]
COc1ccccc1N1CCN(C(C)C(=O)NC2CCC(C)CC2)CC1 (centres unmarked),≥ 100
Cc1cccnc1NCCNc1nc(C(C)C)nc2c1cnn2C,≥ 100
CC(C)Oc1ccc(C(=O)N[C@H](CNC(=O)CN(C)C)Cc2ccc(-c3cn4cccc([C@H](C)O)c4n3)cc2)cc1Cl,≥ 100
c1ccc2c(-c3cnn4cc(-c5ccc(N6CCNCC6)cc5)cnc34)ccnc2c1,≥ 100
O=C(NC1CCN(c2cc(-c3ccccc3)n[nH]2)CC1)c1ccc2ccccc2n1,≥ 100
Fc1ccc2c(c1)nc1n2[C@@H](CNCc2ccccc2)COC1,≥ 100
COc1cccc(NC(=O)c2sc3nc(C)c(C(=O)Nc4ccc(C)cc4C)c(-c4ccc(C)o4)c3c2N)c1,≥ 100
COc1ccccc1NC(=O)Nc1cccc(-c2ccc(N3CCOCC3)nn2)c1,≥ 100
O=C(c1cc(N2CCN(c3ccccc3)CC2)nc2ccccc12)N1CCOCC1,≥ 100
N[C@H](Cc1cscn1)C(=O)Nc1cccc(-c2nn3c(=O)cc(N4CCNCC4)nc3s2)c1,≥ 100
CN(CC(O)COc1cccc(CNCCc2ccc(F)cc2)c1)C1CCCCC1 (centres unmarked),≥ 100
CN(C)c1cccc(C(=O)N2CCC3(CC2)NC(=O)N(c2cccc(Cl)c2)N3)c1,≥ 100

# Series 2 — observed: enzyme activity; action: inhibitor; tested at: 0.5 µM; relative to: control
# Target: Serine/threonine-protein kinase Nek11 (NEK11, Homo sapiens, UniProt Q8NG66)
# Chain of UniProt Q8NG66 (whole entry, looked up): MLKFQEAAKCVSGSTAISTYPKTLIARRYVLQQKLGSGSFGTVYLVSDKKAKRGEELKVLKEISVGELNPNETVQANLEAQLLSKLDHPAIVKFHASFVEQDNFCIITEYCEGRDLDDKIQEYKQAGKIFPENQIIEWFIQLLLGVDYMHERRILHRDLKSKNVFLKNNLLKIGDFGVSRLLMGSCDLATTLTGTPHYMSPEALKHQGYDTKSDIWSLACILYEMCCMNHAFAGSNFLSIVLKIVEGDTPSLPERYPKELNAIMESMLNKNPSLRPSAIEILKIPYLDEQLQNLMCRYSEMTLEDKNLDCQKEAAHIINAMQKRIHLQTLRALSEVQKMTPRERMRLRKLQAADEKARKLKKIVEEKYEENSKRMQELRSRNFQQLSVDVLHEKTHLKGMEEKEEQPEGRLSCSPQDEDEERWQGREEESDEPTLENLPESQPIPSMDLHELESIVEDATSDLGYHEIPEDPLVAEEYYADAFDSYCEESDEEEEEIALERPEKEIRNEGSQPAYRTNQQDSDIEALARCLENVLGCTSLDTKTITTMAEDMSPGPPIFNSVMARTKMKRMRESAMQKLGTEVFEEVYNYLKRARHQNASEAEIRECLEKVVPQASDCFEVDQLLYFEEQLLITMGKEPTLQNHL
SMILES,remaining activity
CCCCc1c(-c2ccc(OC)cc2)[nH]c2nccnc12,93.6%
O=Nc1c(-c2c(O)[nH]c3cc(Br)ccc23)[nH]c2ccccc12,118%
c1ccc(-c2n[nH]c3c2oc2ccccc23)cc1,103%
COc1ccc2c(c1)c(C1=C(c3c[nH]c4ccccc34)C(=O)NC1=O)cn2CCCN(C)C,91.6%
O=C1NC(=O)c2c1c1c3ccccc3[nH]c1n1cncc21,99%
COc1cccc(-c2cc(=O)c3ccccc3o2)c1N,92.9%
O=C1Nc2ccc(Br)cc2/C1=C/c1cc2c([nH]1)CCCC2,111%
N#Cc1cnc2cnc(NCc3cccnc3)cc2c1Nc1ccc(F)c(Cl)c1,87.1%
Cc1ccc(S(=O)(=O)/C=C/C#N)cc1,95.8%
CN(C)S(=O)(=O)c1ccc2c(c1)/C(=C/c1cc3c([nH]1)CCCC3)C(=O)N2,82.5%
O=C1NC(=O)c2c1c1c3ccccc3[nH]c1c1[nH]c3cc(Br)ccc3c21,109%
O=C1Nc2ccccc2/C1=C\c1c(Cl)[nH]c2ccccc12,98.5%
Cc1cc(Nc2cc(N3CCN(C)CC3)nc(Sc3ccc(NC(=O)C4CC4)cc3)n2)[nH]n1,82.8%
c1ccc2c(-c3ccncc3)c[nH]c2c1,76.9%
O=C(c1cc2cc(O)ccc2[nH]1)c1cc2cc(O)ccc2[nH]1,96.7%
CN1CCN(c2ccc3nc(-c4c(N)c5c(F)cccc5[nH]c4=O)[nH]c3c2)CC1,93.6%
O=c1cc(N2CCOCC2)oc2c(-c3ccccc3)cccc12,102%
CCCNC(=O)Nc1ccc(Oc2ncnc3cc(OC)c(OC)cc23)cc1Cl,101%
O=C1Cc2c([nH]c3ccc(Br)cc23)-c2ccccc2N1,107%

# Series 3 — observed: cell-free assay; method: competition with immobilised ligand; tested at: 1 µM
# SMILES: CN(C(=O)c1ccccc1)c1cc(N(C)c2ccc3c(c2)CCc2ccc(C(=O)NCCN4CCOCC4)cc2C3=O)ccc1F
target,remaining binding [%]
"Serine/threonine-protein kinase DCLK2 (DCLK2, Homo sapiens, UniProt Q8N568)",100
"Dual specificity mitogen-activated protein kinase kinase 6 (MAP2K6, Homo sapiens, UniProt P52564)",62
"Inhibitor of nuclear factor kappa-B kinase subunit epsilon (IKBKE, Homo sapiens, UniProt Q14164)",79
"Serine/threonine-protein kinase WNK4 (WNK4, Homo sapiens, UniProt Q96J92)",100
"Receptor-interacting serine/threonine-protein kinase 4 (RIPK4, Homo sapiens, UniProt P57078)",100
"Serine/threonine-protein kinase Sgk2 (SGK2, Homo sapiens, UniProt Q9HBY8)",99
"Homeodomain-interacting protein kinase 3 (HIPK3, Homo sapiens, UniProt Q9H422)",100
"ALK tyrosine kinase receptor (ALK, Homo sapiens, UniProt Q9UM73, C1156Y)",100
"Serine/threonine-protein kinase VRK2 (VRK2, Homo sapiens, UniProt Q86Y07)",100
"Serine/threonine-protein kinase ICK (CILK1, Homo sapiens, UniProt Q9UPZ9)",88
"Dual specificity protein kinase CLK2 (CLK2, Homo sapiens, UniProt P49760)",86
"Tyrosine-protein kinase Fer (FER, Homo sapiens, UniProt P16591)",99

# Series 4 — cell line: mouse MPNST tumor cells; method: high-content immunofluorescence imaging; refers to: nuclear SOX9; tested at: 10 µM; time: 12 h; setting: mean of 2 replicates; relative to: DMSO control; direction: higher = more nuclear SOX9
SMILES,nuclear SOX9 intensity
CCOC(=O)C1=C(C)NC(C)=C(C(=O)OCC)C1c1ccccc1/C=C/C(=O)OC(C)(C)C,133 % of DMSO
CCn1cc(C(=O)O)c(=O)c2cc(F)c(N3CCNCC3)nc21,95.1 % of DMSO and 110 % of DMSO
CCCCNc1ccc(C(=O)OCCOCCOCCOCCOCCOCCOCCOCCOCCOC)cc1,104 % of DMSO
CN(C)CCOc1ccc(/C(=C(/CCCl)c2ccccc2)c2ccccc2)cc1,185 % of DMSO
CN(C)[C@@H]1CCc2[nH]c3ccc(NC(=O)c4ccc(F)cc4)cc3c2C1,115 % of DMSO
Nc1ccc(-c2nc3ccc(-c4nc5ccc(N)cc5[nH]4)cc3[nH]2)cc1,117 % of DMSO
CC(C)[C@H](O)C(=O)N[C@@H](C)C(=O)N[C@@H]1C(=O)N(C)CCc2ccccc21,103 % of DMSO

# For quick reference, copied from above (series 1):
Structure (SMILES),EC50 [µM]
c1ccc2c(-c3cnn4cc(-c5ccc(N6CCNCC6)cc5)cnc34)ccnc2c1,≥ 100
CN(CC(O)COc1cccc(CNCCc2ccc(F)cc2)c1)C1CCCCC1 (centres unmarked),≥ 100
CN(C)c1cccc(C(=O)N2CCC3(CC2)NC(=O)N(c2cccc(Cl)c2)N3)c1,≥ 100
COc1ccccc1NC(=O)Nc1cccc(-c2ccc(N3CCOCC3)nn2)c1,≥ 100
Fc1ccc2c(c1)nc1n2[C@@H](CNCc2ccccc2)COC1,≥ 100
O=C(c1cc(N2CCN(c3ccccc3)CC2)nc2ccccc12)N1CCOCC1,≥ 100
CC(C)Oc1ccc(C(=O)N[C@H](CNC(=O)CN(C)C)Cc2ccc(-c3cn4cccc([C@H](C)O)c4n3)cc2)cc1Cl,≥ 100
